Measurements collected from several papers.
Each line is one published result; not all experiments were run side by side. Numbers after ± are the reported error.
HTR2A: 5-hydroxytryptamine receptor 2A (HTR2A, Homo sapiens, UniProt P28223)
Sequence of UniProt P28223 (whole entry, looked up): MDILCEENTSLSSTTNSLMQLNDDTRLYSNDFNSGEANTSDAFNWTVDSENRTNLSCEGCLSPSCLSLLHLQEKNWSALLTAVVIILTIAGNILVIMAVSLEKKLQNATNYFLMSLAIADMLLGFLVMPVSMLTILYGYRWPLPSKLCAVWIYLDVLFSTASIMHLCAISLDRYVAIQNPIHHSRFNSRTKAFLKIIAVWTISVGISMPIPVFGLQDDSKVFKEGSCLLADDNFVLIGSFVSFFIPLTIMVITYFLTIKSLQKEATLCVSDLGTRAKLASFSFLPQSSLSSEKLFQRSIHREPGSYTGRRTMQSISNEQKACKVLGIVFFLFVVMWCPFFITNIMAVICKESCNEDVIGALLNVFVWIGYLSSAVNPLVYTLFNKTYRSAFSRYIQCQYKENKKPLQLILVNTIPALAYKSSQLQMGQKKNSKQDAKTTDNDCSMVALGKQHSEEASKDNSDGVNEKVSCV
Sequence of UniProt P31424 (whole entry, looked up): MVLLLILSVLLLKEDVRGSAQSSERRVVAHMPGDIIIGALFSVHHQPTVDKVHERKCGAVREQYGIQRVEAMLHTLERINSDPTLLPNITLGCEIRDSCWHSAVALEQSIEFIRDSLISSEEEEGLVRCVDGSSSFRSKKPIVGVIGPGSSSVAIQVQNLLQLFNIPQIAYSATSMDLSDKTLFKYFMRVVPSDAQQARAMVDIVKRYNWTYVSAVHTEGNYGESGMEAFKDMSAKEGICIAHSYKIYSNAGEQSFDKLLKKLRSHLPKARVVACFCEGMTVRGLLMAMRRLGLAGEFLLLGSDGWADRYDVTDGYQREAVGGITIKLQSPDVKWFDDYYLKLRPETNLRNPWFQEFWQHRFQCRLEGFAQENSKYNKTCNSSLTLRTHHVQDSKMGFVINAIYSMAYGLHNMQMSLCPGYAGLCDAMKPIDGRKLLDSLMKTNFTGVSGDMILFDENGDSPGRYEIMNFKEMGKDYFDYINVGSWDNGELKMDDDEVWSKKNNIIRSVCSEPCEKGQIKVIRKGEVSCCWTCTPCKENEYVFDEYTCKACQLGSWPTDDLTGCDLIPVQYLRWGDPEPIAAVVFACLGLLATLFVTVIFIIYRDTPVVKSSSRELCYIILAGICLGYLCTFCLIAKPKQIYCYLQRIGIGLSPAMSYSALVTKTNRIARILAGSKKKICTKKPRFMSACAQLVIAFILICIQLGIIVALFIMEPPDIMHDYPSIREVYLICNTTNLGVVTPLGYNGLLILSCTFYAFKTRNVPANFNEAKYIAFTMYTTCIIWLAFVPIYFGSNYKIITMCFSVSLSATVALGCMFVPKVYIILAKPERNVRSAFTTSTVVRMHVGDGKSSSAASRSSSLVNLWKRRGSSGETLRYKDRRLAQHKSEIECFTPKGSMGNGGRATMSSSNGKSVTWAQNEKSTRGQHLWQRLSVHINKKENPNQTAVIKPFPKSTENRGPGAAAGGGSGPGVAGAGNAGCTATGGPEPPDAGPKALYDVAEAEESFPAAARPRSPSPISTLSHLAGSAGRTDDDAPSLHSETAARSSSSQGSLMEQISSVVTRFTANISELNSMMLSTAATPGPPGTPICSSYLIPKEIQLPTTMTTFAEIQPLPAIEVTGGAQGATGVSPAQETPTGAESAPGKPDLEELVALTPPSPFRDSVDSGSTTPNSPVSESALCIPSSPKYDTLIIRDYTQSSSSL
Sequence of UniProt P18825 (whole entry, looked up): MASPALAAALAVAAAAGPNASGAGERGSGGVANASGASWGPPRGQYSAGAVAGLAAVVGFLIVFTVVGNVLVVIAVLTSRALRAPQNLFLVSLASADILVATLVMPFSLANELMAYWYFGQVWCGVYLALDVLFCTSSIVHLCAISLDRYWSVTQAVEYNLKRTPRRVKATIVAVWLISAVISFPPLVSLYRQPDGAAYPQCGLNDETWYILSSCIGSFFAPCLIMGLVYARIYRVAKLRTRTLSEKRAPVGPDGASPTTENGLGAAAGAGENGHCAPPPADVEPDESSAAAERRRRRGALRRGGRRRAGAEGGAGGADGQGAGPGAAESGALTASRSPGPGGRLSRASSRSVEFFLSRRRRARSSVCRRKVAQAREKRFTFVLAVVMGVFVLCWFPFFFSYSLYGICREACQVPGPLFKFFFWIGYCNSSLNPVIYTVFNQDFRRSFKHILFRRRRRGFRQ
Sequence of UniProt P43681 (whole entry, looked up): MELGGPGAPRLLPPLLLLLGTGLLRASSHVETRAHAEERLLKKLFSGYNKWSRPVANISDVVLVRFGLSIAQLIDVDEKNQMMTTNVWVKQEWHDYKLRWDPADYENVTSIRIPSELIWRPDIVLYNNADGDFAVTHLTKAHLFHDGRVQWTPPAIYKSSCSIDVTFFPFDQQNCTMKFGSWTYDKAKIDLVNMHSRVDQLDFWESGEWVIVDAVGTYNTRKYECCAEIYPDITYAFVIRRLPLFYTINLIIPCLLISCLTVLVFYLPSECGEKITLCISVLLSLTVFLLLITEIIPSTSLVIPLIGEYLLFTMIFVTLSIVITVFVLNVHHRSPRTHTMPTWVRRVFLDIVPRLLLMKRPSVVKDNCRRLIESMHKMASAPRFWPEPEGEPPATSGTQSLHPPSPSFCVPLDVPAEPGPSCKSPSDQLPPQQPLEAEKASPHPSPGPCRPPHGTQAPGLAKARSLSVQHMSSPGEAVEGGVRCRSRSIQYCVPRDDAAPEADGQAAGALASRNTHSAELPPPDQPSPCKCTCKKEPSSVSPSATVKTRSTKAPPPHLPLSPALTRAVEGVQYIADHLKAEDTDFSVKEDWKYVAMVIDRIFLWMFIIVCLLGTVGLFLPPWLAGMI
Sequence of UniProt Q9GZN0 (whole entry, looked up): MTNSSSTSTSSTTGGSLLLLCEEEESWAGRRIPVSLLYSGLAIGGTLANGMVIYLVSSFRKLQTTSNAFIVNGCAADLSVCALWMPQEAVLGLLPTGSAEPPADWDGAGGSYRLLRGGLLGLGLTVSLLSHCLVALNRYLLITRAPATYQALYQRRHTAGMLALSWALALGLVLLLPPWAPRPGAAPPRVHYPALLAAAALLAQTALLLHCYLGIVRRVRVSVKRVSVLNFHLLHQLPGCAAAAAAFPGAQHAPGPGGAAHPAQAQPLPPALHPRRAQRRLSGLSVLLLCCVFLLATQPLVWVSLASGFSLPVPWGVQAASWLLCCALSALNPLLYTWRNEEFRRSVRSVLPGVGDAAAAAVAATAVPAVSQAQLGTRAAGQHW
Sequence of UniProt P47863 (whole entry, looked up): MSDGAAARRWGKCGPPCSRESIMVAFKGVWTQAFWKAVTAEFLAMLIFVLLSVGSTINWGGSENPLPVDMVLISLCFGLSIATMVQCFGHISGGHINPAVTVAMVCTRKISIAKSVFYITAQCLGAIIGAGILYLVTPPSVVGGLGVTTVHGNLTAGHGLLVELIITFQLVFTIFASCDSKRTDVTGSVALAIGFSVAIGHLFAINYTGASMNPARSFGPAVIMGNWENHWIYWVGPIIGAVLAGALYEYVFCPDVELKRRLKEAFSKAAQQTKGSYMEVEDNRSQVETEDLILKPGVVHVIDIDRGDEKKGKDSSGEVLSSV
Sequence of UniProt P21279 (whole entry, unmodified, looked up): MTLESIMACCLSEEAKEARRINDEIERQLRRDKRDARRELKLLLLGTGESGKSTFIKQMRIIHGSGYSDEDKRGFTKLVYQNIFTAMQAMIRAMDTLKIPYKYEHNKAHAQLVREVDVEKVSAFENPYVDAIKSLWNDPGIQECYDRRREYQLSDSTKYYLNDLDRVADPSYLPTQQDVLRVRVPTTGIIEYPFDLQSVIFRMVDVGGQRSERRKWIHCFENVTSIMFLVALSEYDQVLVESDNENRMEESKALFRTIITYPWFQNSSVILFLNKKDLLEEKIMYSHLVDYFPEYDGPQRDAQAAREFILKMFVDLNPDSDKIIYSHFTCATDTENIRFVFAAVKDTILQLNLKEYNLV
Sequence of UniProt P28335 (whole entry, looked up): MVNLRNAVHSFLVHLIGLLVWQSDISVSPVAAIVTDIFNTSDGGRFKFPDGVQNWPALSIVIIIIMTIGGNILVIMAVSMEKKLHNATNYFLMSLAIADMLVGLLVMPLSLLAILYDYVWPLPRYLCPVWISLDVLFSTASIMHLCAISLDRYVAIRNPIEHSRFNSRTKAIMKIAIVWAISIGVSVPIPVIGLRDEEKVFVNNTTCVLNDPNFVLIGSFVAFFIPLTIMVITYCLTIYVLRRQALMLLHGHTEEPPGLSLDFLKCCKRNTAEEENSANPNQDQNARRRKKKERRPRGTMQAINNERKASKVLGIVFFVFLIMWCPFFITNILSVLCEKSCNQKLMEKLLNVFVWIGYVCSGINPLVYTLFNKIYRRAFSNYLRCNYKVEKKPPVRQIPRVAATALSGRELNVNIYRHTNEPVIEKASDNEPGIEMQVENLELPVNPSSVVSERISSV
Sequence of UniProt Q9Y5Z9 (whole entry, unmodified, looked up): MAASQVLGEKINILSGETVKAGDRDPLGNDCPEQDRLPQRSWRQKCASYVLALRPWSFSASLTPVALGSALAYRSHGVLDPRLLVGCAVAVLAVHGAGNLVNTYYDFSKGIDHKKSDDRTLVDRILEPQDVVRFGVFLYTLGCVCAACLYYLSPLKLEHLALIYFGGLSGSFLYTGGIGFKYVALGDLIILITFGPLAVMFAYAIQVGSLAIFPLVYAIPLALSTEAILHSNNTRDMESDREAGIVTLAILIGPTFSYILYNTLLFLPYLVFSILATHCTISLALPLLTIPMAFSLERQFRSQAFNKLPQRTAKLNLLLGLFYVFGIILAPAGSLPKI
Sequence of UniProt P54292 (whole entry, looked up): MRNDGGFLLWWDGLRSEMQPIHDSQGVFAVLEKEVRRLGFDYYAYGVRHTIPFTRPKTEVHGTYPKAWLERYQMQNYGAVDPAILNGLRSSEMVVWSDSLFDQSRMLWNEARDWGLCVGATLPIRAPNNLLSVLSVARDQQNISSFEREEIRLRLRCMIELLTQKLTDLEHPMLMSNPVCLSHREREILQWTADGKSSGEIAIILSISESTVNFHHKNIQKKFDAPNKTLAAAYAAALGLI

CN[C@@](C)(C[18F])C(=O)O — tissue uptake (SCID mouse SK-OV-3 xenograft, brain; 30 min, post injection): 0.3 ± 0.1 %ID/g
CC(=O)Nc1ccc(Nc2nc(-c3ccc(Cl)c(Cl)c3)cs2)cc1 — EC50 (Sterol carrier protein 2 (Homo sapiens, UniProt P22307); NBDS displacement, fluorescent probe displacement; 50% of maximum displacement, with: NBDS 500 nM): 2.2 ± 0.2 µM
C=CC(C)(C)c1[nH]c2cc(Br)ccc2c1CCNC — EC50 (Neuronal acetylcholine receptor; alpha4/beta2, (α4)3(β2)2 stoichiometry (Homo sapiens, UniProt P17787+P43681); ion current, potentiator, two-electrode voltage clamp; Xenopus oocytes; low-sensitivity α4β2 stoichiometry, with: 100 µM acetylcholine (EC75)): 0.63 ± 0.0406 µM
CCC[CH2][Sn]([CH2]CCC)([CH2]CCC)[O]c1cc(Cl)c(Cl)cc1Cl — EC50 (Aquaporin-4 (Rattus norvegicus, UniProt P47863); water permeability, inhibitor, stopped-flow light scattering; TNC1 plasma membrane vesicles; 15 min): 30 µM
CC[C@H](C)[C@H](NC(=O)[C@H](Cc1ccccc1)NC(=O)[C@H](CC(=O)O)NC(=O)[C@H](CCCNC(=N)N)NC(=O)[C@@H](NC(=O)[C@@H](NC(=O)[C@H](CCCNC(=N)N)NC(=O)[C@H](CO)NC(=O)[C@@H](NC(=O)[C@H](CCCNC(=N)N)NC(=O)[C@H](CCSC)NC(=O)[C@@H](N)CCC(=O)O)[C@@H](C)CC)[C@@H](C)CC)[C@@H](C)CC)C(=O)N[C@@H](Cc1ccccc1)C(=O)N[C@@H](CC(C)C)C(=O)N[C@@H](CCCNC(=N)N)C(=O)O — EC50 (histidine kinase ComD (Streptococcus pneumoniae serotype 2, UniProt A0A0H2ZM50); Streptococcus pneumoniae): > 1 µM
[Cl-].[Cl-].[Zn+2] — EC50 (Glutamate receptor ionotropic, kainate 3 (Rattus norvegicus, UniProt P42264); ion current, positive modulator, whole-cell patch clamp; HEK293 cells; combined potentiation and inhibition fit, with: glutamate 10 mM): 46 µM
C=C1C(=O)N[C@@H](C)C(=O)N(C)[C@@H](C)C(=O)N[C@@H]([C@H](OC(=O)[C@@H](NC(=O)CC)[C@H](O)C(C)C)C(C)C)C(=O)N(C)[C@@H]([C@@H](C)OC)C(=O)O[C@H](C(C)C)[C@H](NC(C)=O)C(=O)O[C@H](Cc2ccccc2)C(=O)N1C — EC50 (Gnaq, with Gβ1γ2 (Mus musculus, UniProt P21279, Q209L); Gβ1γ2–Gαq association, split-luciferase complementation; HEK293; 18 h, constitutively active Gαq Q209L): 0.009 µM
CC[C@H](C)[C@H](NC(=O)[C@H](Cc1c[nH]cn1)NC(=O)[C@@H](NC(=O)[C@H](CCC(N)=O)NC(=O)[C@H](CCCNC(=N)N)NC(=O)[C@H](CCSC)NC(=O)[C@@H](N)CCC(=O)O)[C@@H](C)O)C(=O)N[C@H](C(=O)N[C@@H](Cc1ccccc1)C(=O)N[C@@H](Cc1ccccc1)C(=O)N[C@@H](Cc1ccccc1)C(=O)N[C@@H](Cc1ccccc1)C(=O)N[C@@H](Cc1ccccc1)C(=O)N[C@@H](CCCCN)C(=O)N[C@@H](CCCNC(=N)N)C(=O)N[C@@H](CCCNC(=N)N)C(=O)O)[C@@H](C)CC — EC50 (histidine kinase ComD (Streptococcus pneumoniae serotype 4, UniProt A0A0H2US84); reporter gene, agonist; Streptococcus pneumoniae, TIGR4 comX::lacZ; 30 min, pH 7.3, 37 °C): > 10 µM
CC(C)CC(=O)N[C@H]1CCOC1=O — EC50 (HTH-type quorum-sensing regulator RhlR (rhlR, Pseudomonas aeruginosa, UniProt P54292); reporter gene, agonist; Escherichia coli reporter strain): 1 µM
CC(C)N(CCc1c[nH]c2ccccc12)C(C)C — EC50 (HTR2A; β-arrestin recruitment, agonist): > 10 µM
O=C(c1ccc(F)cc1)N1CCc2nc(COc3ccccc3)oc2C1 — EC50 (Metabotropic glutamate receptor 5 (Grm5, Rattus norvegicus, UniProt P31424); calcium mobilization, positive allosteric modulator; rat cortical astrocytes; with: glutamate): 0.317 µM
CNCCc1c[nH]c2ccc(OC)cc12 — EC50 (5-hydroxytryptamine receptor 1A (HTR1A, Homo sapiens, UniProt P08908); calcium signal, agonist): 0.22 µM
CCCN(C/C=C/I)C1CCc2ccc(O)cc2C1 (centres unmarked) — EC50 (Alpha-2C adrenergic receptor (ADRA2C, Homo sapiens, UniProt P18825); G protein activation, agonist, BRET, measured: Gαi2; HEK293T, transfected; Emax below 50%): 0.01 ± 0.002 µM
CCCN(CCC)CCc1c[nH]c2ccc(OC)cc12 — EC50 (HTR2A; β-arrestin recruitment, agonist): 0.993 µM
CC(C)Oc1ccccc1-n1c(CN2CCN(C(=O)COc3ccc(Cl)cc3)CC2)nc2ccccc2c1=O — EC50 (Slc7a11 (Rattus norvegicus, UniProt A0A8I6AB70); glutamate release, inhibitor; rat primary microglia; 24 h, with: LPS 1 µg/mL): 0.16 ± 0.02 µM
CCCN(CCC)CCc1c[nH]c2ccccc12 — EC50 (HTR2A; β-arrestin recruitment, agonist): 1.69 µM
c1cc2c3c(c1)c1c(n3CCNC2)CCCC1 — EC50 (5-hydroxytryptamine receptor 2C (HTR2C, Homo sapiens, UniProt P28335); calcium signal, agonist): 0.451 µM
CC[C@H](C)[C@H](N)CN(C(=O)[C@@H]1C[C@H]1c1ccccn1)c1ccc(-c2ccccc2)cc1 (relative stereo) — EC50 (G protein-coupled receptor 88 (Homo sapiens, UniProt Q9GZN0); cAMP, agonist, TR-FRET): 2.76 µM
CC[C@H](C)[C@H](NC(=O)[C@H](CCCNC(=N)N)NC(=O)[C@H](CO)NC(=O)[C@H](CC(C)C)NC(=O)[C@H](CCCNC(=N)N)NC(=O)[C@H](CCSC)NC(=O)[C@@H](N)CCC(=O)O)C(=O)N[C@H](C(=O)N[C@@H](CC(C)C)C(=O)N[C@@H](CC(=O)O)C(=O)N[C@@H](Cc1ccccc1)C(=O)N[C@@H](CC(C)C)C(=O)N[C@@H](Cc1ccccc1)C(=O)N[C@@H](CCC(N)=O)C(=O)N[C@@H](CCCNC(=N)N)C(=O)O)[C@@H](C)CC — EC50 (histidine kinase ComD (Streptococcus pneumoniae serotype 2, UniProt A0A0H2ZM50); Streptococcus pneumoniae): > 1 µM
CC1=CC(=O)c2ccccc2C1=O — EC50 (UbiA prenyltransferase domain-containing protein 1, C147S (UBIAD1, Homo sapiens, UniProt Q9Y5Z9); vitamin K-dependent carboxylation, measured: FIXgla-PC; FIXgla-PC reporter cells): 0.0037 ± 0.0006 µM

A few entries again:
C=CC(C)(C)c1[nH]c2cc(Br)ccc2c1CCNC — EC50 (Neuronal acetylcholine receptor; alpha4/beta2, (α4)3(β2)2 stoichiometry (Homo sapiens, UniProt P17787+P43681); ion current, potentiator, two-electrode voltage clamp; Xenopus oocytes; low-sensitivity α4β2 stoichiometry, with: 100 µM acetylcholine (EC75)): 0.63 ± 0.0406 µM
CCC[CH2][Sn]([CH2]CCC)([CH2]CCC)[O]c1cc(Cl)c(Cl)cc1Cl — EC50 (Aquaporin-4 (Rattus norvegicus, UniProt P47863); water permeability, inhibitor, stopped-flow light scattering; TNC1 plasma membrane vesicles; 15 min): 30 µM
